Measurements of several laboratories.
Each numbered part is a random draw from the data of one study; scales do not carry over between parts. Values joined by “and” are separate records of one study, mostly repeats; a detail may differ.
Chain of UniProt P16220 (whole entry, looked up): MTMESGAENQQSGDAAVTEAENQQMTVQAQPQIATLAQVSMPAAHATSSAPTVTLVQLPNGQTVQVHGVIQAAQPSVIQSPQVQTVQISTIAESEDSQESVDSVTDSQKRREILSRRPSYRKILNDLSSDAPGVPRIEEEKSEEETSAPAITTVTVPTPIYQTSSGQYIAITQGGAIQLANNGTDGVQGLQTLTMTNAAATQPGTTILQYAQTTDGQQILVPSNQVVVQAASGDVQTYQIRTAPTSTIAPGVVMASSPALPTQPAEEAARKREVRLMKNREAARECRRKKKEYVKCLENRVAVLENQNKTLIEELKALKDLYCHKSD

Set 1
Target: RNA binding protein fox-1 homolog 2, RRM domain, GST-SBP tag (RBFOX2, Homo sapiens, UniProt O43251-10, residues 100-194)
Technique: RNA Bind-n-Seq
Molecule type: RNA
Matrix: in vitro
Concentration: 365 nM
Setting: natural RNA segment, single round, ends assumed
Reference: no-protein control
Reading: higher = stronger binding
Shared flanks, not repeated: GGGAGUUCUACAGUCCGACGAUC … UGGAAUUCUCGGGUGCCAA
Target sequence (chain): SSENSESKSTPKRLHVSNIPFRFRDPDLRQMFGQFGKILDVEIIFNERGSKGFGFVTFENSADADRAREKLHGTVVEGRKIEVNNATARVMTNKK
Sequence	RBNS enrichment (R)
UGUGUUUGGCACUCUGCUAGACGUUUUACUGGUAUUAACCGAUUUAAUCCUCACAAUAACGAAGUAUGUACUACUAUAAUUGCCAGUUUACAGACGAGAAAACUAAGGCA	1.02
CAGGGAUAAAAGUAUCCUUUGUUCAAUGAGUAGAAAACUAGAUUAUCUAUUAAUAUUUAAGACCAGGAAAAAAAAAAAAGAGGCUUAAGAGUAAGCCUGGAAAAUCUCAC	0.669
AGAAUUGUGAUCUUCACCUUCUAAUUGAUUCUUUUUAAAAAAAGAAUUCCUAUAUUUUCAGUGGAUUCAAACUCUUUCUGAGGUUUUAAUGCGUGAAAGGAGCAGAGAAA	0.531
GUAUUUCUCUAGUGUAUUUAGUGUGUCGUCAAAAUUUUGAUUUAUACAGAGCUUUCAAGAACACACAAUGCAAAGUGAGCGCAGCAUAGCUGUUAACAAACAUACAACUU	0.247
AGACAGAAUCCACUCCUAAGUUAGGACAUGGAGCCCAGAUACUAUGAUACCAAAUUCAGGGGUGUCACAGCCAUUUUGUUCUGCCCUGCAAGUUUUAGAUCCAAUCUGCC	0.608
CCUGAAGAGUGAUAUUUGUACAAUAGCUUUCUUCUUUAUUUAAAUAAACAUUUGUAUUGUAGUUGGGUUCUGAAGUCCAUUCUGGCUCUGCUACUUAACAGUGUAUAAUC	0.277
CCUUUCAGGCCCUACUGAGACAGGUGAUGGGAAUUUUUUCUUUAUUUUUUAGGUUAACUGAGCUGCUUUGUGCUCAGAAUCUACAUUCCAGAUUGAGGAUUUAGUGUCUU	0.624
AGCAAGGCGCCCAUGCCACACACCGUCUCUCGAGGAAACGCGGUUCAGCGAUUCUUUGACUGCGGACCCUGUGGGAAACCCCGUCAAUAAAUGUUAAAGACACACUCCGA	0.239

Set 2
Cell line: HEK-293T
Read-out: pseudovirus infection
Technique: FDA-approved drug library screen
Organism: VSV pseudotyped with SARS-CoV-2 spike
Concentration: 10 µM
Time: 16 h
Reference: vehicle-treated
SMILES	GFP-positive cells
CC=CC(=O)N(CC)c1ccccc1C (mixture of isomers)	104%
COc1ccccc1OCC(O)CO (centres unmarked)	83.9%
CCOc1nc2cccc(C(=O)O)c2n1Cc1ccc(-c2ccccc2-c2nnn[nH]2)cc1	95.8%
N#C[C@@H]1C[C@@H]2C[C@@H]2N1C(=O)[C@@H](N)C12CC3CC(CC(O)(C3)C1)C2	93%

Set 3
Organism: SARS-CoV-2
Read-out: cytopathic effect
Cell line: Vero E6
Concentration: 10 µM
SMILES	inhibition
COC(=O)C1=C(C)NC(C)=C(C(=O)OC)C1c1ccccc1[N+](=O)[O-]	-3.2% and -10.2%
O=NN(CCCl)C(=O)NC1CCCCC1	3%
COc1ncc(-c2ccc3nccc(-c4ccnnc4)c3c2)cc1NS(=O)(=O)c1ccc(F)cc1F	-13.5%
CC(=O)O/N=C1\C(=O)N(Cc2cc(Cl)ccc2Cl)c2ccc(Cl)cc21	3.6%

Set 4
Target: Sal-like protein 4, full length isoform B (SALL4, Homo sapiens, UniProt Q9UJQ4-2, residues 1-616)
Technique: universal PBM
Molecule type: double-stranded DNA, one strand shown
Matrix: in vitro
Concentration: not given
Setting: 8-mer, flanks averaged, mean of replicates
Reading: higher = stronger binding
Sequence	E-score
AAATTATG	0.405
AGCATTGG	0.0404
ATCTAACC	0.0271
ATTCTGCC	-0.0295
AAAATTCG	0.295
AAATGGAT	0.192
AGGGACCC	-0.276
ATTCGGCG	-0.141

Set 5
Target: Replicase polyprotein 1ab, nsp13 helicase (rep, Severe acute respiratory syndrome coronavirus 2, UniProt P0DTD1)
Mode: inhibitor
Concentration: 20 µM
SMILES	inhibition [%]
CNC(=O)c1ccccc1Nc1cc(Nc2ccc(N3CCOCC3)cc2OC)ncc1C(F)(F)F	6.51
O=C1c2ccccc2-c2c(NCCc3ccccc3)c(=O)[nH]c3cccc1c23	9.68
CCC(=O)NC[C@@H]1C[C@H]1c1cccc2c1CCO2	1.61
CN1CCC(CNc2ccc3ncc(-c4cccc(OC(F)(F)F)c4)n3n2)CC1	11.3
Cn1nnnc1SCC1=C(C(=O)O)N2C(=O)[C@@H](NC(=O)[C@H](O)c3ccccc3)[C@H]2SC1	5
C[C@H](NCc1ccc(OCc2cccc(F)c2)cc1)C(N)=O	-2.01
CC(=O)O[C@H]1C[C@@H]2CC[C@@H]3[C@H](CC[C@@]4(C)[C@H]3C[C@H](N3CC[N+](C)(C)CC3)[C@@H]4OC(C)=O)[C@@]2(C)C[C@@H]1N1CC[N+](C)(C)CC1	19.5
c1ccc(C2(c3ccccc3)CC2C2=NCCN2)cc1 (centres unmarked)	-7.01
CN(C)/N=N/c1[nH]cnc1C(N)=O	4.59
COc1ccc(C(=O)N2CCCc3cc(C4=NNC(=O)SC4C)ccc32)cc1OC (centres unmarked)	7.3
CC(C)(CO)[C@@H](O)C(=O)NCCC(=O)O	3.77
CC(C)(Sc1ccncc1-c1ccc(C#N)c2ccccc12)C(=O)O	2.5
Nc1ccn([C@H]2CC[C@@H](CO)O2)c(=O)n1	4.24
CCS(=O)(=O)c1cccc(-c2cc(C(=O)NC3CCN(C)CC3)c(C)c3[nH]c4ncc(C)cc4c23)c1	13.5
O=C(O)c1ccccc1NC(=O)N1CCC(c2ccccc2C(F)(F)F)CC1	-3.96
C[C@@H]1COCCN1c1cc(C2([S@](C)(=N)=O)CC2)nc(-c2cc[nH]c3nccc2-3)n1	1.22
CC(=O)Oc1cccc(C(=O)O)c1OC(C)=O	1.21
CC(=O)CC(c1ccc([N+](=O)[O-])cc1)c1c(O)c2ccccc2oc1=O (centres unmarked)	6.1
O=c1ccn([C@@H]2O[C@H](COP(=O)(O)OP(=O)(O)OP(=O)(O)O)[C@@H](O)[C@H]2O)c(=O)[nH]1	5.85
CCC(CC)Nc1nc(C)c(-c2ccc(OC(F)(F)F)cc2OC)nc1OC	4.4
NNCCc1ccccc1	0.01
COc1c2occc2cc2ccc(=O)oc12	8.02
Clc1ccc(N/N=C(\c2ccccc2)c2ccccn2)nc1	4.12
Nc1[nH]cnc2ncnc1-2	-31.1
O=c1ccc2c(OCCCCOc3ccccc3)c3ccoc3cc2o1	4.54

Single results of other studies
Sequence	target	assay	test system	setting	how to read	endpoint	result
CCACGTC	Cyclic AMP-responsive element-binding protein 1 (CREB1, Homo sapiens, UniProt P16220, residues 1-327, full length assumed)	protein-binding microarray	double-stranded DNA, one strand shown, in vitro	not given, k-mer, scored over probes, only values ≥0.25	higher = stronger binding	E-score	0.327

A few entries again (set 4):
Sequence	E-score
ATTCGGCG	-0.141
AGGGACCC	-0.276
ATTCTGCC	-0.0295
AAAATTCG	0.295
